Published values pooled from the literature.
Each line is one published result; not all experiments were run side by side. Values joined by “and” are separate records of one study, mostly repeats; a detail may differ.
Target: Inhibitor of nuclear factor kappa-B kinase subunit beta (IKBKB, Homo sapiens, UniProt O14920)
Sequence (O14920 1-756, as in one of the studies): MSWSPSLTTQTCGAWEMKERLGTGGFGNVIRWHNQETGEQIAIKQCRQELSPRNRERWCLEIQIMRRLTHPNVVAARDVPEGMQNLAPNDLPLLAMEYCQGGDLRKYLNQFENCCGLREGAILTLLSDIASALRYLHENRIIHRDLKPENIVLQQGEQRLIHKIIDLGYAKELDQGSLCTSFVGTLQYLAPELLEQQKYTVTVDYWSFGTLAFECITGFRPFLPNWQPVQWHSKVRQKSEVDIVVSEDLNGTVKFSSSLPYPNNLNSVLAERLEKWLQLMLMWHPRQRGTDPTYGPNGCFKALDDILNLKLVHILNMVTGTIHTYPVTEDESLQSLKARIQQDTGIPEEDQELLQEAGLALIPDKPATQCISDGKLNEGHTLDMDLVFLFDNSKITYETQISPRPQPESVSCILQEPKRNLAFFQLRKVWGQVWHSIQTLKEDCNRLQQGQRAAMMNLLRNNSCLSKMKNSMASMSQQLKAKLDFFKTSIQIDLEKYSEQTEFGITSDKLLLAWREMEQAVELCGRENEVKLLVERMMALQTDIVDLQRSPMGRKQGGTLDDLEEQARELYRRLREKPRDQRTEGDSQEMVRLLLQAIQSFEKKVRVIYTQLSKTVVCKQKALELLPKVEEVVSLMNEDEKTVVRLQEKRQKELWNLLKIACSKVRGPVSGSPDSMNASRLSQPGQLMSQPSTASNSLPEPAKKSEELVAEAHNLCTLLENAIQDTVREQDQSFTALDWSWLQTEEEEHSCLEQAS

| Compound | assay | system | setting | scale | measurement | result |
| --- | --- | --- | --- | --- | --- | --- |
| CC(C)=CC1OC(C)(C)C2C=C3C(=O)C(Cl)=CC(O)C3C3C(O)C4OC4C(=O)C132 (centres unmarked) | cell-free assay, competition with immobilised ligand |  | 10 µM |  | remaining binding | 77% |
| CCn1cc(C(=O)O)c(=O)c2c(N)c(F)c(NC3CCCCC3)cc21 | kinase activity |  | 0.1 µM, together with: ATP at Km |  | inhibition | 8.7% |
| Nc1nc(Nc2ccccc2)sc1C(=O)c1ccccc1 | enzyme activity, inhibitor |  | 10 µM |  | remaining activity | 55% |
| CS(=O)(=O)Nc1cccc(-c2csc3cnc(Nc4ccc(N5CCN(CCCCCOc6cccc7c6C(=O)N(C6CCC(=O)NC6=O)C7=O)CC5)cc4)nc23)c1 (centres unmarked) | probe labelling, inhibitor, KiNativ chemoproteomics | MOLT-4 | 1 µM |  | inhibition | -24.9% |
| Cc1cccc(-c2ccc3nc(NC(=O)C4CCOCC4)nn3c2)c1 | enzyme activity, Dundee kinase panel |  | 10 µM |  | remaining activity | 97% |
| Nc1ncc2c(n1)-c1c([nH]c3ccc(C4=CCOCC4)cc13)CCC2 | binding, competition with immobilised ligand |  | 1 µM |  | remaining binding | 89% |
| O=C(Cc1ccc(OCc2ccccc2)cc1)NC1(C(=O)O)CCN(C(=O)c2ccc(-c3cccc(Cl)c3)cc2)CC1 | enzyme activity, inhibitor |  | 10 µM |  | activity vs control | 132% |
| CN1CCN(Cc2ccc(-c3ccc(CO[C@H]4CCC[C@@H]4NC(=O)c4cc(-c5cnn(C)c5)cnc4N)cc3)cc2)CC1 | enzyme activity, inhibitor |  | 0.1 µM |  | inhibition | 2% |
| C=CC(=O)Nc1cccc(-c2cnc3[nH]cc(C(=O)NC(C)(C)C)c3n2)c1 | kinase activity |  | 0.1 µM |  | inhibition | -1% and 1% |
| Cc1ccc(-c2c(/C=C(\C#N)C(=O)NC(C)C)n(CCCO)c3ncnc(N)c23)cc1 | cell-free assay, competition with immobilised ligand |  | 1 µM |  | remaining binding | 78% |
| C[C@H]1CN(C(=O)c2cn(-c3ccnc(N)n3)c3cc(C#CC4(O)CCCCC4)ccc23)CCN1 | enzyme activity, inhibitor, FRET |  | 1 µM |  | inhibition | 3% |
| CN1CCN(Cc2ccc(NC(=O)c3cccc(C#Cc4cnc(N)c5ncccc45)c3)cc2C(F)(F)F)CC1 | cell-free assay, competition with immobilised ligand |  | 0.5 µM |  | remaining binding | 0.1% |
| NC(=O)[C@@H](O)C[C@H]1CCc2sc3ncnc(O[C@H]4CC[C@H](N5CCOCC5)CC4)c3c21 | enzyme activity, inhibitor |  | 10 µM |  | inhibition | 4% |
| CNC1C[S+]2CC[S+]3CC[S+](C1)[Ru-4]321([N]=C=S)[n]2c3ccc(OC)cc3c3c4c(c5cc(F)c[n+]1c5c32)C(=O)NC4=O (centres unmarked) | KinomeScan |  | 0.1 µM | reference: untreated | remaining binding | 80% |
| COc1cc(Nc2nccc(-c3cnn4nc(OC)ccc34)n2)cc(C(F)(F)F)c1 | binding, competition with immobilised ligand |  | 1 µM |  | remaining binding | 82% |
| Cc1cccc(O[C@H]2CCC[C@@H](C(C)CNCc3ccncc3)C2)c1 (relative stereo) | enzyme activity, inhibitor |  | 10 µM |  | inhibition | -9% |
| Cn1cc(-c2cnc3ccc(NC(=O)Nc4ccc5sccc5c4)cc3n2)cn1 | kinase binding, KiNativ profiling, item: Lys2 peptide | PANC-1 lysate | 2.5 µM |  | inhibition | 6.1% |
| C=CC(=O)N1CCCC(n2c(=O)c3ncccc3n(Cc3ccc(Oc4ccccc4)cc3)c2=O)C1 (centres unmarked) | cell-free assay, competition with immobilised ligand |  | 1 µM |  | remaining binding | 81% |
| C=C1CCCCCCCCCC(CO)C1=O (centres unmarked) | cell-free assay |  | 10 µM |  | remaining signal | 73% |
| COc1ccc(C(=O)/C=C/c2ccccc2-c2c[nH]c3ccc(C#N)cc23)c(O)c1 | enzyme activity, inhibitor |  | 20 µM |  | inhibition | -11% |
| COc1ccc(NC(=O)Nc2ccc3c(c2)C(=O)N(C(C)CO)CC(C)C(CN(C)Cc2ccc4c(c2)OCO4)O3)cc1 (centres unmarked) | binding, competition with immobilised ligand |  | 10 µM |  | remaining binding | 68% |
| COCC12C(=O)NC3C4(C(OC)CC1O)C1CC5(O)C(OC)C(O)C(OC(C)=O)(C1C5OC(=O)c1ccccc1)C3(O)C(OC)C24 (centres unmarked) | kinase activity, inhibitor, ProQinase kinase profiling |  | 25 µM | reference: control | remaining activity | 100% and 86% |
| Cc1cccc(-c2ccc3nc(NC(=O)C4CCCO4)nn3c2)c1 (centres unmarked) | enzyme activity, Dundee kinase panel |  | 10 µM |  | remaining activity | 95% |

For quick reference, copied from above:
| Compound | assay | system | setting | scale | measurement | result |
| --- | --- | --- | --- | --- | --- | --- |
| COc1cc(Nc2nccc(-c3cnn4nc(OC)ccc34)n2)cc(C(F)(F)F)c1 | binding, competition with immobilised ligand |  | 1 µM |  | remaining binding | 82% |
| COCC12C(=O)NC3C4(C(OC)CC1O)C1CC5(O)C(OC)C(O)C(OC(C)=O)(C1C5OC(=O)c1ccccc1)C3(O)C(OC)C24 (centres unmarked) | kinase activity, inhibitor, ProQinase kinase profiling |  | 25 µM | reference: control | remaining activity | 100% and 86% |
